Measured values from different studies.
Protocols differ between the studies behind these lines. ± marks the error that the study gave.
Organism: Staphylococcus aureus

The inhibition zone of CCOc1ccc(NC(=O)CSc2nc3ccccc3c(=O)n2-c2ccc(S(N)(=O)=O)cc2)cc1 is reported as 33 mm (microbial growth, well diffusion; ATCC29213; 500 µg/mL, 24 h).
With Cc1cc(O)c2c(c1)C(=O)c1cc3oc(=O)cc(-c4ccc(O)cc4)c3c(O)c1C2=O the inhibition zone was 8 mm (microbial growth, disc diffusion; MTCC96; 100 µg/disc).
With Cc1cc([N+](=O)[O-])ccc1NC(=O)CSc1nc2ccccc2c(=O)n1-c1ccc(S(N)(=O)=O)cc1 the inhibition zone was 29 mm (microbial growth, well diffusion; MRSA; 500 µg/mL, 24 h).
The inhibition zone of Cc1cc(O)c2c(c1)C(=O)c1cc3oc(=O)cc(-c4ccc(Cl)cc4)c3c(O)c1C2=O is reported as 8 mm (microbial growth, disc diffusion; MTCC96; 100 µg/disc).
O=C1c2ccccc2C(=O)c2c1ccc1c2C(C(=O)Nc2ccccc2)C(=O)C1c1ccccc1 (stereo not drawn) gave an inhibition zone of 11 mm (microbial growth, disc diffusion; MTCC96; 100 µg/mL, 24 h).
COc1c2c(cc3oc(=O)cc(-c4ccc(Cl)cc4)c13)C(=O)c1cc(C)cc(O)c1C2=O has an inhibition zone of 13 mm (microbial growth, disc diffusion; MTCC96; 100 µg/disc).
COc1ccc(NC(=O)C2C(=O)C(c3ccccc3)c3ccc4c(c32)C(=O)c2ccccc2C4=O)cc1 (stereo not drawn) gave an inhibition zone of 8 mm (microbial growth, disc diffusion; MTCC96; 100 µg/mL, 24 h).
The inhibition zone of CCc1ccc(NC(=O)CSc2nc3ccccc3c(=O)n2-c2ccc(S(N)(=O)=O)cc2)cc1 is reported as 22 mm (microbial growth, well diffusion; MRSA; 500 µg/mL, 24 h).
The inhibition zone of O=C1c2ccccc2C(=O)c2c1ccc1c2C(C(=O)NCc2ccccc2)C(=O)C1c1ccccc1 (stereo not drawn) is reported as 11 mm (microbial growth, disc diffusion; MTCC96; 100 µg/mL, 24 h).
C=C(CO)C(=O)O[C@H]1CC(=C)[C@@H]2C[C@H](O)[C@](O)(CCl)[C@@H]2[C@H]2OC(=O)C(=C)C12 (stereo partly drawn) has an inhibition zone of 12 ± 0.33 mm (concentration not given).
The inhibition zone of COc1cc(OC)c2c(c1)C(=O)c1cc3oc(=O)cc(-c4ccc(Cl)cc4)c3c(O)c1C2=O is reported as 10 mm (microbial growth, disc diffusion; MTCC96; 100 µg/disc).
O=C1c2ccccc2C(=O)c2c1ccc1c2C(C(=O)Nc2ccc(Cl)cc2)C(=O)C1c1ccccc1 (stereo not drawn) gave an inhibition zone of 12 mm (microbial growth, disc diffusion; MTCC96; 100 µg/mL, 24 h).

Repeated from above:
With Cc1cc([N+](=O)[O-])ccc1NC(=O)CSc1nc2ccccc2c(=O)n1-c1ccc(S(N)(=O)=O)cc1 the inhibition zone was 29 mm (microbial growth, well diffusion; MRSA; 500 µg/mL, 24 h).
